Experimental data pooled from the literature.
Lines come from different studies, so protocols differ. Several values in a cell are separate wells, animals, samples, runs or records. Numbers after ± are the reported error.
Ugcg: Ceramide glucosyltransferase (Ugcg, Mus musculus, UniProt O88693)
UniProt O88693, sequence (whole entry, looked up): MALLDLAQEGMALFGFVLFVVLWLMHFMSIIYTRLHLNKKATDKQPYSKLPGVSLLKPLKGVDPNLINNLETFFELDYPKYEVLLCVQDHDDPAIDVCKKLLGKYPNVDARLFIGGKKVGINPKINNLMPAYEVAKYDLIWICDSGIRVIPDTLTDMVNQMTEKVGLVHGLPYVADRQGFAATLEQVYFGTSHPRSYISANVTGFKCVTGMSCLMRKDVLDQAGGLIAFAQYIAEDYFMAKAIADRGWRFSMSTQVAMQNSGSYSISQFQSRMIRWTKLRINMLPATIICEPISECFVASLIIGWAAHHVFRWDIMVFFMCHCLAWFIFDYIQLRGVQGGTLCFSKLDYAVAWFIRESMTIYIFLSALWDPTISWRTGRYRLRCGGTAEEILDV
USP5: Ubiquitin carboxyl-terminal hydrolase 5 (USP5, Homo sapiens, UniProt P45974)
UniProt P45974, sequence (whole entry, looked up): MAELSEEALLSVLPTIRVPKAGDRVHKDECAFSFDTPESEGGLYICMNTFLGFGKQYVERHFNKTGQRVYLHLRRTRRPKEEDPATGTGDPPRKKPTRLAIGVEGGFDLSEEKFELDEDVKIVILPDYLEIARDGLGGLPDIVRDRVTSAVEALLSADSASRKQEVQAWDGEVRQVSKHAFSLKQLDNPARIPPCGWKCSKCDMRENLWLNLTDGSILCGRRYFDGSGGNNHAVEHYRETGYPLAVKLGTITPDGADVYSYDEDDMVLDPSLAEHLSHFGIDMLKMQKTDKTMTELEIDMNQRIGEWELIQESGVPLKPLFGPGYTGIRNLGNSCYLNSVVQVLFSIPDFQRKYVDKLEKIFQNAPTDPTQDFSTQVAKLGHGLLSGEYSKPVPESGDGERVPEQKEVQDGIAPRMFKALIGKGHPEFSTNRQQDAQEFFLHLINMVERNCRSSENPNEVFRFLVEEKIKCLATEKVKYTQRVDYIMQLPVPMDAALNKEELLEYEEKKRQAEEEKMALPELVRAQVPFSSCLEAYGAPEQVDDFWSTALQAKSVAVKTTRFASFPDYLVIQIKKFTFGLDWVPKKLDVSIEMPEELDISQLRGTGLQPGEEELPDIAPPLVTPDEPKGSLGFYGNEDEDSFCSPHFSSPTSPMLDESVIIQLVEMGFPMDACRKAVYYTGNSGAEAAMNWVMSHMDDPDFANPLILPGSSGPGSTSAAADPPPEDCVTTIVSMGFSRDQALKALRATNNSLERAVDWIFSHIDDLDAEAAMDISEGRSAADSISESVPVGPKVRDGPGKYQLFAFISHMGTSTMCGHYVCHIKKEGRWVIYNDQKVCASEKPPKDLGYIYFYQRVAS
CASP9: Caspase-9 (CASP9, Homo sapiens, UniProt P55211)
UniProt P55211, sequence (whole entry, looked up): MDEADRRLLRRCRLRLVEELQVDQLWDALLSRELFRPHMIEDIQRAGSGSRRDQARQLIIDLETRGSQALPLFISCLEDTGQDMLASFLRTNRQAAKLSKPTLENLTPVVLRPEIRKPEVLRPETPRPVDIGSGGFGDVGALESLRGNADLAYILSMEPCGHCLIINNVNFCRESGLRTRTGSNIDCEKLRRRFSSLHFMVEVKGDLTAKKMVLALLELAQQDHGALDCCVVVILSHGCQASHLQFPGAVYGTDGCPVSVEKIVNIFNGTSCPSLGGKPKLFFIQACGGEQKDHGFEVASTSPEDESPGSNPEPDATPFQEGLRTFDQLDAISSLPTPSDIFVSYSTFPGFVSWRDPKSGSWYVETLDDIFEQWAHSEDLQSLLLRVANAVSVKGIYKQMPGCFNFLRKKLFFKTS
Lysophospholipase-like protein 1: Lysophospholipase-like protein 1 (Mus musculus, UniProt Q3UFF7)
UniProt P46089, sequence (whole entry, looked up): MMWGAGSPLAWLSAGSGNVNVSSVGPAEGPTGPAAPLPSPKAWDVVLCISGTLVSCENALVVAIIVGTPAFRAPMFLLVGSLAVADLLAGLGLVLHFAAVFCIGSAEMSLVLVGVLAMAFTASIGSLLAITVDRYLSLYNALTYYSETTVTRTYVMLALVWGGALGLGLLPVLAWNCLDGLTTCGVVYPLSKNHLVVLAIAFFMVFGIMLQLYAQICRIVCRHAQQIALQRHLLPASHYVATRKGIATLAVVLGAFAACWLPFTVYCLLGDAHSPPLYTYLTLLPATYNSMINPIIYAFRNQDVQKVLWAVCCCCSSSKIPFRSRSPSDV
UniProt Q92633, sequence (whole entry, unmodified, looked up): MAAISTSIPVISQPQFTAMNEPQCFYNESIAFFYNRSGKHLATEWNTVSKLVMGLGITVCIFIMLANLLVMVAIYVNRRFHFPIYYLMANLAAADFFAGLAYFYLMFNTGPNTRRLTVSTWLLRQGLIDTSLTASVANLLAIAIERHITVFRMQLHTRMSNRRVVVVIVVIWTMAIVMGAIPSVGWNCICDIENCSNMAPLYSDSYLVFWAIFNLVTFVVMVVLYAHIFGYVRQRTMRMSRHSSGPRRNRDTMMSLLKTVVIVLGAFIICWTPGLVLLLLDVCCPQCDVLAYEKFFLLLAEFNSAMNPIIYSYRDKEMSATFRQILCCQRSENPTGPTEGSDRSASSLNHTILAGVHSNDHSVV
UniProt P18669, sequence (whole entry, looked up): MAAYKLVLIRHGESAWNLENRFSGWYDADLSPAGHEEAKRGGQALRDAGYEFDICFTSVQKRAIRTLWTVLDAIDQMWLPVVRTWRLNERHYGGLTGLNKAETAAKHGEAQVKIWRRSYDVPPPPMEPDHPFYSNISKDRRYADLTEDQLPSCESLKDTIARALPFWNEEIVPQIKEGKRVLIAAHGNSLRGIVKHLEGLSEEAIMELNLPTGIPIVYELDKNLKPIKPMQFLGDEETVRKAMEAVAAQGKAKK
UniProt P25999, sequence (whole entry, looked up): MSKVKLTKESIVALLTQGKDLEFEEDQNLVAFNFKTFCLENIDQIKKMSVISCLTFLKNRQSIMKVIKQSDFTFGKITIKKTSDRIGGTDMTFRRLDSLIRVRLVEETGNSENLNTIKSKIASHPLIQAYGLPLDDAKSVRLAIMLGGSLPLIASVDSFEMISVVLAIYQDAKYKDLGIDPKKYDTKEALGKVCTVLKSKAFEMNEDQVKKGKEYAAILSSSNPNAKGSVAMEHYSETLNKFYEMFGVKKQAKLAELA
UniProt Q3UFF7, sequence (whole entry, looked up): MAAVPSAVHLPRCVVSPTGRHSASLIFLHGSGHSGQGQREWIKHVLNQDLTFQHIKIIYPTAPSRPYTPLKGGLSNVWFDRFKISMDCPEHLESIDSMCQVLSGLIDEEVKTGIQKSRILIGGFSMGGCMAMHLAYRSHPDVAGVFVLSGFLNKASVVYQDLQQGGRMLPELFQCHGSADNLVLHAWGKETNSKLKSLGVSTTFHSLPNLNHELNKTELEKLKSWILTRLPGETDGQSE
UniProt Q9HC52, sequence (whole entry, looked up): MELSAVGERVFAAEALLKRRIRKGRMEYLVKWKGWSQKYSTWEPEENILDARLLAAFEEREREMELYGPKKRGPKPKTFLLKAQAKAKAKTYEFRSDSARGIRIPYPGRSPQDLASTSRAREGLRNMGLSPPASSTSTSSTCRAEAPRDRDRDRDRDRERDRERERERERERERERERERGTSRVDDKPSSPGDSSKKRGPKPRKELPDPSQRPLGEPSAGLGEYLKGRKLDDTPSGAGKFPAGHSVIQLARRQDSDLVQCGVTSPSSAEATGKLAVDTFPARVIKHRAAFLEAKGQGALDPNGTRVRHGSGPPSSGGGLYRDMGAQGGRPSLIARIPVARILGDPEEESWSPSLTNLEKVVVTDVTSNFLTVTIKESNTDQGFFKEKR
UniProt P01317, sequence (whole entry, looked up): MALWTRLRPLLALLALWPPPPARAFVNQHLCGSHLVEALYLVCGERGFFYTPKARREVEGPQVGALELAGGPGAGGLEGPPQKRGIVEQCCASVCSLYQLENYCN
UniProt Q9NSD7, sequence (whole entry, unmodified, looked up): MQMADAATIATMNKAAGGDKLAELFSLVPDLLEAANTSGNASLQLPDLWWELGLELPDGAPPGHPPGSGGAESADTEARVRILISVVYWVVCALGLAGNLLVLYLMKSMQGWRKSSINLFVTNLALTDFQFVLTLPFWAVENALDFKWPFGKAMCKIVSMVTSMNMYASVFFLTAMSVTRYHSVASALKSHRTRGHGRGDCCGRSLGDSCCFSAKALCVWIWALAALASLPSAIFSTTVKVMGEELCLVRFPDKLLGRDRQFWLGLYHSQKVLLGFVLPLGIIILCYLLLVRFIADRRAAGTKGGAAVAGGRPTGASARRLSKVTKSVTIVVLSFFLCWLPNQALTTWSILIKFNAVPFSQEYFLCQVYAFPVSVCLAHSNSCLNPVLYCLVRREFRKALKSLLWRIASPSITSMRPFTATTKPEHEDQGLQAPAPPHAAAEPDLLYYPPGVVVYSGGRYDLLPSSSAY
UniProt P35354, sequence (whole entry, looked up): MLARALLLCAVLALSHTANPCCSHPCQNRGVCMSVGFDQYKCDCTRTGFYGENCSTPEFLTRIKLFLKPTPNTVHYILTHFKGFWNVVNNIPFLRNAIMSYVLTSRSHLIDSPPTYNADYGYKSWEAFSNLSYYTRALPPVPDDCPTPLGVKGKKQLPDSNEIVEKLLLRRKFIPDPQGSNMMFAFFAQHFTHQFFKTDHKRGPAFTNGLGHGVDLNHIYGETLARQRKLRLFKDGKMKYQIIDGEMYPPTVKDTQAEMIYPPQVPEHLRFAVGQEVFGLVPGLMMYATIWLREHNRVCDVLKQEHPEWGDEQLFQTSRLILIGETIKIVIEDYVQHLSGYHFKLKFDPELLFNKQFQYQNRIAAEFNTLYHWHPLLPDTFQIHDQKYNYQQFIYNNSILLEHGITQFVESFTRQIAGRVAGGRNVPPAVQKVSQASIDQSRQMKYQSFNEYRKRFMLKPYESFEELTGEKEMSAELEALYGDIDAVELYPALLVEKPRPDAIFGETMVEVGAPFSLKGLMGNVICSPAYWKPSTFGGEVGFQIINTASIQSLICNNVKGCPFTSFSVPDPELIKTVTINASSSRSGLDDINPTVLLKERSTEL

SMILES	tested on	test	test system	conditions	how to read	endpoint	value
CC(C)[C@H](NC(=O)[C@H](Cc1ccccc1)NC(=O)c1ccc(C(C)(C)C)cc1)C(=O)N[C@@H](CCN1CCOCC1)C(=O)N[C@@H](CCCCN(C)C1CC2CCC1C2)C(=O)N[C@@H](CO)C(N)=O (stereo partly drawn)	Chromobox protein homolog 8 (Homo sapiens, UniProt Q9HC52)	TR-FRET displacement	–	–	reference: IC50 CBX7 over IC50 CBX8	selectivity ratio	24
CCN(CC)C(CO)c1cccc2c(C)c(C)oc12 (stereo not drawn)	Lysophosphatidic acid receptor 1 (LPAR1, Homo sapiens, UniProt Q92633, W271A)	G-protein dissociation, agonist, NanoBiT	HEK-293T	10 pM, W271A mutant	reference: baseline luminescence	fold change	1.05 and 1.01 and 1 and 0.972
Cc1ccc(-c2ccc(COCCCCCN3C[C@H](O)[C@@H](O)[C@H](O)[C@H]3CO)cc2)cc1	Ugcg	enzyme activity, inhibitor, fluorescence	–	–	–	IC50	0.1 µM
CN(C)CCCSC(=S)N1CCN(C(=O)/C=C/c2coc3ccccc3c2=O)CC1	Nucleoprotein (N, Tomato spotted wilt virus, UniProt P25999)	western blot	–	NG, 160 min, 25 °C, together with: RNA	reference: 0 min	relative N protein level	0.306 and 0.459 and 0.333
CC(C)=CC1OC(C)(C)C2C=C3C(=O)C(Cl)=CC(O)C3C3C(O)C4OC4C(=O)C132 (stereo not drawn)	Epidermal growth factor receptor (EGFR, Homo sapiens, UniProt P00533, L858R/T790M)	cell-free assay, competition with immobilised ligand	–	10 µM	–	remaining binding	86%
O=C1NNC(c2ccccc2)=N/C1=C\c1ccc(Cl)cc1	USP5	enzyme activity, inhibitor	–	17 µM	–	inhibition	87%
CC(=O)N[C@@H](CC(C)C)C(=O)N[C@H](C(=O)N[C@@H](C)C(=O)N[C@@H](CC(=O)O)C(=O)COC(=O)c1c(C)cccc1C)C(C)(C)C	CASP9	enzyme activity, inhibitor	–	–	–	kinact/KI	242000 M⁻¹ s⁻¹
CC(C)N1CCCc2cc(CN)ccc21	USP5	enzyme activity, inhibitor	–	17 µM	–	inhibition	66%
COc1ccc(NC(=O)c2cnn(-c3ccc([N+](=O)[O-])cc3)c2C(F)(F)F)cc1OC	Prostaglandin G/H synthase 2 (PTGS2, Homo sapiens, UniProt P35354)	enzyme activity, inhibitor	–	–	reference: COX-1 IC50 over COX-2 IC50	selectivity ratio	1.14
O=C1NNC(c2ccccc2)=N/C1=C\c1ccco1	USP5	enzyme activity, inhibitor	–	17 µM	–	inhibition	49%
CC(=O)N[C@@H](CCC(N)=O)C(=O)N[C@@H](CC(C)C)C(=O)N[C@@H](CCCC(=O)O)C(=O)N1CCC[C@H]1C(=O)N[C@@H](CC(=O)O)C(=O)COC(=O)c1c(C)cccc1C	CASP9	enzyme activity, inhibitor	–	–	–	kinact/KI	117000 M⁻¹ s⁻¹
O=C(NCCOc1ccc(F)cc1)c1ccc([C@H]2[C@@H](F)[C@@H](F)C[C@@H](F)[C@H]2F)cc1	–	liver microsome stability	rat liver microsomes	1 µM	–	hepatic clearance	26 mL/min/kg
CC(=O)ON=C1Sc2ccccc2C1=O	USP5	enzyme activity, inhibitor	–	17 µM	–	inhibition	33%
O=C(NC[C@@H](Cc1ccc(F)cc1)N1CCC(O)(C(F)(F)F)CC1)C1(c2ccc(Cl)cc2)CCCC1	Transient receptor potential cation channel subfamily A member 1 (TRPA1, Homo sapiens, UniProt O75762, I878A)	calcium influx, agonist	–	–	reference: I878A mutant over wild type	EC50 fold change	10.5
CC[C@H](C)[C@H](NC(=O)[C@H](CC(=O)O)NC(C)=O)C(=O)N[C@@H](Cc1ccccc1)C(=O)N[C@@H](Cc1ccccc1)C(=O)N[C@@H](CCCNC(=N)N)C(=O)N[C@@H](Cc1ccc(O)cc1)C(=O)N[C@@H](CC(N)=O)C(=O)NCC(=O)N[C@@H](CCCCN)C(=O)N[C@H](C(=O)N[C@@H](Cc1c[nH]c2ccccc12)C(=O)N[C@@H](Cc1c[nH]c2ccccc12)C(=O)N[C@@H](CCCNC(=N)N)C(=O)O)C(C)C	Insulin (INS, Bos taurus, UniProt P01317)	circular dichroism	insulin-peptide complex	concentration not given, 0 min, 62 °C, before heat incubation, together with: insulin 350 µM	–	random coil content	24%
C=CC(=O)N1CCCC(n2c(=O)c3ncccc3n(Cc3ccc(Oc4ccccc4)cc3)c2=O)C1 (stereo not drawn)	RNA cytosine C(5)-methyltransferase NSUN2 (NSUN2, Homo sapiens, UniProt Q08J23)	thermal proteome profiling	–	10 µM, destabilized proteins, unit not given	reference: vehicle	melting temperature shift	-5.43
COP(=O)(OC)OC[C@H]1OC(O)(COP(=O)(OC)OC)[C@@H](O)[C@@H]1O (stereo partly drawn)	Phosphoglycerate mutase 1 (Homo sapiens, UniProt P18669)	–	–	concentration not given, unit not given	reference: control set to 100	enzyme activity	5.26 and 7.89 and 6.82
CC[C@H](C)[C@@H]1NC(=O)[C@H](Cc2ccccc2)NC(=O)[C@H](CCC(=O)O)NC(=O)[C@H](CCCNC(=N)N)NC(=O)CNC(=O)[C@@H](NC(=O)[C@H](CC(C)C)NC(=O)[C@H](CCCNC(=N)N)NC(=O)[C@@H](NC(=O)CNC(=O)[C@H](Cc2ccc(O)cc2)NC(=O)[C@@H]2CCCN2C(=O)[C@H](C)NC(=O)[C@H](C)NC(=O)[C@@H](N)CCCNC(=N)N)C(C)C)CSSC[C@@H]2NC(=O)[C@@H](NC(=O)[C@H](CO)NC(=O)[C@H](CO)NC(=O)[C@H](CO)NC(=O)[C@H](CC(C)C)NC(=O)CNC(=O)[C@H](C)NC(=O)[C@H](CC(C)C)NC(=O)[C@@H](NC(=O)[C@@H](N)CC(=O)O)C(C)C)CSSC[C@H](NC(=O)CNC(=O)[C@H](Cc3c[nH]c4ccccc34)NC(=O)[C@H](CCCCN)NC2=O)C(=O)N[C@@H](CO)C(=O)N[C@@H](CCCCN)C(=O)N[C@@H](CO)C(=O)N[C@@H](CCC(=O)O)C(=O)N[C@@H]([C@@H](C)CC)C(=O)N[C@@H](CO)C(=O)N[C@@H](CO)C(=O)N[C@@H](CC(C)C)C(=O)N[C@H](C(=O)O)CSSC[C@@H](C(=O)NCC(=O)NCC(=O)N[C@@H](CO)C(=O)N[C@@H](CCCNC(=N)N)C(=O)N[C@@H](Cc2c[nH]c3ccccc23)C(=O)O)NC(=O)[C@H]([C@@H](C)O)NC(=O)[C@H](Cc2ccccc2)NC(=O)[C@H]([C@@H](C)CC)NC(=O)[C@H](C(C)C)NC(=O)[C@H](C)NC(=O)[C@H](CCCNC(=N)N)NC1=O	Relaxin-3 receptor 1 (RXFP3, Homo sapiens, UniProt Q9NSD7, S163V)	–	HEK-293T	–	reference: wild type	Emax	64.8 ± 9.85%
CC(C)[C@@H]1NC(=O)[C@H](Cc2ccccc2)NC(=O)CSC[C@@H](C(N)=O)NC(=O)[C@H](CCC(=O)O)NC(=O)[C@H](CO)NC(=O)[C@H](Cc2c[nH]c3cccc(Cl)c23)NC(=O)[C@H](C2CCCCC2)NC(=O)[C@H](C(C)C)NC(=O)[C@H](Cc2ccc(O)cc2)NC(=O)[C@H](CC(=O)O)NC(=O)[C@H](Cc2c[nH]c3ccccc23)NC(=O)[C@H](Cc2ccc(N)nc2)NC(=O)[C@H](Cc2c[nH]c3ccc(Cl)cc23)NC(=O)[C@H](CCC(=O)O)NC1=O	Interleukin-1 receptor-like 2 (IL1RL2, Homo sapiens, UniProt Q9HB29)	reporter gene (SEAP), inhibitor, HEK-Blue IL-36R reporter	HEK-Blue IL-36R cells	100 µM, 6 h, together with: IL-36β 30 ng/mL	–	remaining activity	35.5%
CC(=O)N[C@@H](CCC(C)C)C(=O)N[C@@H](CCC(=O)O)C(=O)N[C@@H](C)C(=O)N[C@@H](CC(=O)O)C(=O)COC(=O)c1c(C)cccc1C	CASP9	enzyme activity, inhibitor	–	–	–	kinact/KI	166000 M⁻¹ s⁻¹
Nc1nc(SCc2ccc(Cl)cc2)nn1S(=O)(=O)c1ccc(-c2ccccc2)cc1	Lysophospholipase-like protein 1	enzyme activity, activator, gel-based ABPP	purified protein	concentration not given, together with: FP-rhodamine	reference: DMSO	probe labeling increase	1.3 fold
CC(C)Oc1cc(Cl)ccc1CNc1cc(-c2ccccc2)nc2ncnn12	G-protein coupled receptor 3 (GPR3, Homo sapiens, UniProt P46089)	cAMP reporter	human cells	100 nM	higher is more cAMP	cAMP luminescence	36800 a.u. and 47900 a.u. and 25100 a.u. and 14900 a.u. and 38000 a.u. and 41000 a.u. and 29100 a.u.
O=C1c2sc(-c3ccc(N4CCC(CO)CC4)nc3F)nc2CCN1c1cccnc1	TAR DNA-binding protein 43, aggregated (TARDBP, Homo sapiens, UniProt Q13148)	radioligand binding	control brain sarkosyl-insoluble extract	1.29 nM	–	specific binding	-9 pM
Nc1nc(SCc2ccccc2)nn1S(=O)(=O)c1ccc2c(c1)CCO2	Lysophospholipase-like protein 1	enzyme activity, activator, gel-based ABPP	purified protein	concentration not given, together with: FP-rhodamine	reference: DMSO	probe labeling increase	1.3 fold
CN(C)c1cccc(-c2ccc([C@H]3[C@@H](F)[C@@H](F)C[C@@H](F)[C@H]3F)cc2)c1	–	liver microsome stability	mouse liver microsomes	1 µM	–	hepatic clearance	87 mL/min/kg
OC[C@H]1[C@@H](O)[C@H](O)[C@@H](O)CN1CCCCCOCc1ccc2ccccc2c1	Ugcg	enzyme activity, inhibitor, fluorescence	–	–	–	IC50	0.003 µM
O=C(N1CCCC1)n1cc(-c2ccc(-c3ccccc3)cc2)nn1	Serine hydrolase-like protein (Serhl, Mus musculus, UniProt Q9EPB5)	enzyme activity, inhibitor, competitive ABPP-SILAC, item: Serhl	mouse T-cells	concentration not given, 4 h, treated in situ	reference: DMSO	activity ratio	0.98

For quick reference, copied from above:
SMILES	tested on	test	test system	conditions	how to read	endpoint	value
CC(C)=CC1OC(C)(C)C2C=C3C(=O)C(Cl)=CC(O)C3C3C(O)C4OC4C(=O)C132 (stereo not drawn)	Epidermal growth factor receptor (EGFR, Homo sapiens, UniProt P00533, L858R/T790M)	cell-free assay, competition with immobilised ligand	–	10 µM	–	remaining binding	86%
O=C1c2sc(-c3ccc(N4CCC(CO)CC4)nc3F)nc2CCN1c1cccnc1	TAR DNA-binding protein 43, aggregated (TARDBP, Homo sapiens, UniProt Q13148)	radioligand binding	control brain sarkosyl-insoluble extract	1.29 nM	–	specific binding	-9 pM
O=C(N1CCCC1)n1cc(-c2ccc(-c3ccccc3)cc2)nn1	Serine hydrolase-like protein (Serhl, Mus musculus, UniProt Q9EPB5)	enzyme activity, inhibitor, competitive ABPP-SILAC, item: Serhl	mouse T-cells	concentration not given, 4 h, treated in situ	reference: DMSO	activity ratio	0.98
